Results of several laboratories.
Numbered parts are unrelated; each lists some results of a single study. Positions count from the first letter of the parent shown.

Sample 1 — technique: aptamer microarray, sandwich; molecule type: DNA with 2'F-ANA; sample: in vitro; tested at: 200 nM; together with: Cy3 exosite-II aptamer, 400 nM; reading: higher = stronger binding; sequence: GGTTGGTGTGGTTGG
Target: Prothrombin, mature alpha-thrombin (F2, Homo sapiens, UniProt P00734)
Setting: whole 15-mer aptamer, many near background
Modification	mean fluorescence intensity [a.u.]
2'F-ANA at 4 5 8 9 11 13	56.9
2'F-ANA at 5 6 12 13 15	111
2'F-ANA at 4 5 6 10 14	168
2'F-ANA at 1 3 4 5 6 9 10 11 12	53.8
2'F-ANA at 1 3 4 6 9 11 12 13 14 15	66.4
2'F-ANA at 2 4 5 6 7 8 9 11 12 13 15	74.3
2'F-ANA at 2 3 4 5 6 7 9	93.8
2'F-ANA at 2 5 9 13	54.3

Sample 2 — technique: protein-binding microarray; molecule type: double-stranded DNA, one strand shown; sample: in vitro; tested at: 940 nM top; setting: 60-bp whole probe; together with: salmon DNA 0.4 mg/ml; relative to: random background probes; reading: higher = stronger binding; all sequences stand within: GCCTAGCAC … GTCTTGATTCGCTTGACGCTGCTG
Target: Interferon regulatory factor 5, full length, phosphomimetic (IRF5, Homo sapiens, UniProt Q13568-2, residues 1-514, S451D/S453D/S456D/S462D)
Sequence	fitted relative affinity [z-score]
CCCTGTTTCCATCTCTCAAAGTGCTAG	1.93
TTAGGTATCGGTTTCTGTTAGTGCTAG	10.1
TCACATCTCAAGTAGCCTACTGTGCTA	0.682
GACGATCTGAGTCTCGAGACGTGCTAG	0.247
GGAGAGTTCCAGGAGGTCGAGTGCTAG	-0.434
TCATGAGTCACTTCTGGTACTGTGCTA	-0.266
TCATTTCCCACTTTCACACTGTGCTAG	2.53

Sample 3 — target: CCND1, cyclin fold, Cln2 fusion (human); technique: yeast growth competition, sequencing; sample: yeast; setting: weak parent motif; relative to: not given; reading: higher = stronger binding
Parent: GMNC docking peptide (human); KNAKRNLSSEFAN
Variant	normalised enrichment score
S9I	0.681
N2R	0.748
F11Q	0.325
A3L	0.285
L7C	-0.127
A12D	0.947
S9V	0.462

Single results of other studies
Substance	target	assay	system	conditions	scale	quantity	value
PhoQ, residues 284 288 289 292 302 303 DDMDFR	PhoP, residues 12 14 15 18 19 YHFSH (Escherichia coli, UniProt P23836)	Sort-seq, item: YFP reporter	E. coli	PhoQ-PhoP variant library, together with: 10 µM Mg2+	relative to: high Mg2+ state, higher = stronger signaling	fold induction	0.89
